Experimental data gathered from unrelated publications.
Protocols differ between the studies behind these lines. ± marks the error that the study gave.

| Compound | test system | setting | tissue uptake |
| --- | --- | --- | --- |
| O=C(O)CCCOc1ccc([18F])cc1-c1cc(-c2ccccc2C(F)(F)F)n(-c2ccccc2)n1 | mouse, urine | intravenous, dose not given, 15 min | 0.03 ± 0.02 %ID/g |
| CCCC[C@H](NC(=O)CNC(=O)CNC(=O)[C@H](CCCCNC(=O)[C@H](CC(=O)O)NC(=O)C(C)c1ccc(CC(C)C)cc1)NC(=O)CN1CCN(CC(=O)O)CCN(CC(=O)O)CCN(CC(=O)O)CC1)C(=O)N[C@H]1CC(=O)NCCCC[C@@H](C(N)=O)NC(=O)[C@H](Cc2c[nH]c3ccccc23)NC(=O)[C@H](CCCNC(=N)N)NC(=O)[C@@H](Cc2ccccc2)NC(=O)[C@H](Cc2c[nH]cn2)NC1=O (some centres unmarked) [lutetium-177 labelled] | C57 mice, tumour-bearing, spleen | intravenous, 0.037 MBq, 4 h | 0.68 ± 0.21 %ID/g |
| N#C[C@@H]1CC(F)(F)CN1C(=O)CNC(=O)c1ccnc2c(NC(=O)CCOCCOCCOCCOCCOCCOCCNC(=O)[C@H](CCCCNC(=O)CN3CCN(CC(=O)[O-])CCN(CC(=O)[O-])CCN(CC(=O)[O-])CC3)NC(=O)CCCc3ccc(I)cc3)cccc12.[177Lu+3] | mouse, U-87 MG tumour xenograft, brain | 4 h | 0.12 ± 0.05 %ID/g |
| COc1cccc(OC)c1-c1cc(C(=O)NC2(C(=O)O)C3CC4CC(C3)CC2C4)nn1-c1ccc(C(=O)N(C)CCOCCOCCN(C)C(=O)[C@H](CCCCNC(=O)[C@H](CC(C)C)NC(=O)C2OC2C(=O)O)NC(=O)CN2CCN(CC(=O)[O-])CCN(CC(=O)[O-])CCN(CC(=O)[O-])CC2)cc1C(C)C.[177Lu+3] (mixture of isomers) | mouse, HT-29 xenograft, HT-29 tumour | 24 h post injection | 2.19 %ID/g |
| N#C[C@@H]1CC(F)(F)CN1C(=O)CNC(=O)c1ccnc2c(NC(=O)[C@H](CCCCNC(=O)CCOCCOCCOCCOCCOCCOCCNC(=O)CN3CCN(CC(=O)[O-])CCN(CC(=O)[O-])CCN(CC(=O)[O-])CC3)NC(=O)CCCc3ccc(I)cc3)cccc12.[177Lu+3] | mouse, U-87 MG tumour xenograft, kidneys | 96 h | 0.64 ± 0.18 %ID/g |
| [11CH3]N1CCC(NC(=O)c2cc(-c3c(O)cc(O)cc3Oc3ccc([N+](=O)[O-])cc3)on2)CC1 | Wistar rat, female, healthy, spleen | intravenous, 60 min | 0.3 %ID |
| COc1cccc(OC)c1-c1cc(C(=O)NC2(C(=O)O)C3CC4CC(C3)CC2C4)nn1-c1ccc(C(=O)N(C)CCCN(C)C(=O)[C@H](CCCCNC(=O)[C@H](CC(C)C)NC(=O)C2OC2C(=O)O)NC(=O)CN2CCN(CC(=O)[O-])CCN(CC(=O)[O-])CCN(CC(=O)[O-])CC2)cc1C(C)C.[177Lu+3] (mixture of isomers) | mouse, HT-29 xenograft, brain | 24 h post injection | 0.06 %ID/g |
| CC(C)C[C@H](NC(=O)[C@@H](CCCCNC(=O)[C@@H](Cc1ccccc1)NC(=O)CCCCCCCNC(=O)CN1CCN(CC(=O)O)CCN(CC(=O)O)CCN(CC(=O)O)CC1)NC(=O)[C@H](Cc1ccc(O)cc1)NC(=O)[C@H](CO)NC(=O)[C@H](Cc1c[nH]c2ccccc12)NC(=O)[C@H](Cc1c[nH]cn1)NC(=O)[C@@H]1CCC(=O)N1)C(=O)N[C@@H](CCCNC(=N)N)C(=O)N1CCC[C@H]1C(=O)NCC(N)=O [indium-111 labelled] | male athymic nude mice, DU-145 prostate cancer xenograft, kidney | intravenous, 0.037 MBq, 2 h | 7.83 ± 1.07 %ID/g |
| COc1ccc(Nc2nc(Nc3ccc(OCCOCC[18F])cc3)ncc2Br)cc1 | ICR mice, S180 tumour-bearing, heart | intravenous, 370 kBq, 60 min | 2.88 ± 0.23 %ID/g |
| [123I]c1ccc2nc(-c3ccc(-n4ccnn4)nc3)cn2c1 | male Wistar rat, small intestine | intravenous, 4 MBq, 3 h | 1.5 ± 0.424 %ID/g |
| COc1cccc(OC)c1-c1cc(C(=O)NC2(C(=O)O)C3CC4CC(C3)CC2C4)nn1-c1ccc(C(=O)N(C)CCCN(C)CCCN(C)C(=O)[C@H](CCCCNC(=O)[C@H](CC(C)C)NC(=O)C2OC2C(=O)O)NC(=O)CN2CCN(CC(=O)[O-])CCN(CC(=O)[O-])CCN(CC(=O)[O-])CC2)cc1C(C)C.[177Lu+3] (mixture of isomers) | mouse HT-29 xenograft, large intestine | 4 h post injection, biodistribution | 1.7 %ID/g |
| CCCC[C@H](NC(=O)COCCOCCNC(=O)CN1CCN(CC(=O)O)CCN(CC(=O)O)CC1)C(=O)N[C@H]1CC(=O)NCCCC[C@@H](C(N)=O)NC(=O)[C@H](Cc2c[nH]c3ccccc23)NC(=O)[C@H](CCCNC(=N)N)NC(=O)[C@@H](Cc2ccccc2)NC(=O)[C@H](Cc2c[nH]cn2)NC1=O [fluorine-18 labelled] | C57 mice B16-F10 melanoma, heart | intravenous, 0.37 MBq, 1 h | 0.59 ± 0.28 %ID/g |
| COc1cccc(OC)c1-c1cc(C(=O)NC2(C(=O)O)C3CC4CC(C3)CC2C4)nn1-c1ccc(C(=O)NCCNC(=O)[C@H](CCCCNC(=O)[C@H](CC(C)C)NC(=O)C2OC2C(=O)O)NC(=O)CN2CCN(CC(=O)[O-])CCN(CC(=O)[O-])CCN(CC(=O)[O-])CC2)cc1C(C)C.[177Lu+3] (mixture of isomers) | mouse HT-29 xenograft, small intestine | 4 h post injection, biodistribution | 0.89 %ID/g |
| Cc1cc(C)n(CCN(CCN)CCCCCCNC(=O)[C@@H](N)Cc2c[nH]cn2)n1.[99Tc+].[C-]#[O+].[C-]#[O+].[C-]#[O+] | BALB/c nude mice, A549 xenograft, heart | intravenous, 24 h | 0.29 ± 0.06 %IA/g |

For quick reference, copied from above:
| Compound | test system | setting | tissue uptake |
| --- | --- | --- | --- |
| COc1ccc(Nc2nc(Nc3ccc(OCCOCC[18F])cc3)ncc2Br)cc1 | ICR mice, S180 tumour-bearing, heart | intravenous, 370 kBq, 60 min | 2.88 ± 0.23 %ID/g |
